Results collected from several papers.
± gives the spread as reported.
SUA7 full length assumed: SUA7 full length assumed (Saccharomyces cerevisiae, UniProt P29055)
UniProt P29055, sequence (whole entry, looked up): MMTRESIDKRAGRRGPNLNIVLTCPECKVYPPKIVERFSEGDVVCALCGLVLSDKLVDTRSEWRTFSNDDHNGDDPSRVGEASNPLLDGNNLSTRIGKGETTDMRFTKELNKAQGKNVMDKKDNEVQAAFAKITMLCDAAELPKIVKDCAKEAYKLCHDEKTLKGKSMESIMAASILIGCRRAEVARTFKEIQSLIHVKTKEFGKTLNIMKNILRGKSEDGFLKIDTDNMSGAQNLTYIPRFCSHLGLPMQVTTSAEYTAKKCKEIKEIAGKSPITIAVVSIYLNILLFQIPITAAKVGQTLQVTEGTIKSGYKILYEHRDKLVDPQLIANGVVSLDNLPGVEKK
B1: Gm4951 N190A/E191A (Mus musculus, UniProt Q3UED7); sequence looked up; chain MGQLFSSRRSEDQDLSSSFIEYLKECEKGINIIPHEIITSIEINMKKGNIQEVNSTVRDMLREIDNTPLNVALTGETGSGKSSFINTLRGIGHEEGGAAHTGVTDKTKERHPYEHPKMPNVVFWDLPGTGSEDFQPKTYLEKMKFYEYDFFIIISATRFKKNDIDLAKAIGIMKKEFYFVRTQVDSDLRAAEDFKPQTFDREKVLQDIRLNCVNTFRENGIAEPPIFLISNKNVCHYDFPVLMDKLISDLPVFKRQNFMFSLPNITDSVIEKKRNFLRWKTWLEGFADGLLSFFLESDLETLEKSMKFYRTVFGVDDASLQRLARAWEIDQVDQVRAMIKSPAVFTPTDEETIQERLSRYNQEFCLANGYLLPKNHCREILYLKLYFLDMVTEDAKTLLKEICLRN
B2: SPOP M117V (Homo sapiens, UniProt O43791); sequence looked up; chain MSRVPSPPPPAEMSSGPVAESWCYTQIKVVKFSYMWTINNFSFCREEMGEVIKSSTFSSGANDKLKWCLRVNPKGLDEESKDYLSLYLLLVSCPKSEVRAKFKFSILNAKGEETKAVESQRAYRFVQGKDWGFKKFIRRDFLLDEANGLLPDDKLTLFCEVSVVQDSVNISGQNTMNMVKVPECRLADELGGLWENSRFTDCCLCVAGQEFQAHKAILAARSPVFSAMFEHEMEESKKNRVEINDVEPEVFKEMMCFIYTGKAPNLDKMADDLLAAADKYALERLKVMCEDALCSNLSVENAAEILILADLHSADQLKTQAVDFINYHASDVLETSGWKSMVVSHPHLVAEAYRSLASAQCPFLGPPRKRLKQS
B3: PHYA 1-876 I748P (Arabidopsis thaliana, UniProt P14712); phytochromobilin thioether linked; chain GMSGSRPTQSSEGSRRSRHSARIIAQTTVDAKLHADFEESGSSFDYSTSVRVTGPVVENQPPRSDKVTTTYLHHIQKGKLIQPFGCLLALDEKTFKVIAYSENASELLTMASHAVPSVGEHPVLGIGTDIRSLFTAPSASALQKALGFGDVSLLNPILVHCRTSAKPFYAIIHRVTGSIIIDFEPVKPYEVPMTAAGALQSYKLAAKAITRLQSLPSGSMERLCDTMVQEVFELTGYDRVMAYKFHEDDHGEVVSEVTKPGLEPYLGLHYPATDIPQAARFLFMKNKVRMIVDCNAKHARVLQDEKLSFDLTLCGSTLRAPHSCHLQYMANMDSIASLVMAVVVNEEDGEGDAPDATTQPQKRKRLWGLVVCHNTTPRFVPFPLRYACEFLAQVFAIHVNKEVELDNQMVEKNILRTQTLLCDMLMRDAPLGIVSQSPNIMDLVKCDGAALLYKDKIWKLGTTPSEFHLQEIASWLCEYHMDSTGLSTDSLHDAGFPRALSLGDSVCGMAAVRISSKDMIFWFRSHTAGEVRWGGAKHDPDDRDDARRMHPRSSFKAFLEVVKTRSLPWKDYEMDAIHSLQLILRNAFKDSETTDVNTKVIYSKLNDLKIDGIQELEAVTSEMVRLIETATVPILAVDSDGLVNGWNTKIAELTGLSVDEAIGKHFLTLVEDSSVEIVKRMLENALEGTEEQNVQFEIKTHLSRADAGPISLVVNACASRDLHENVVGVCFVAHDLTGQKTVMDKFTRPEGDYKAIIQNPNPLIPPIFGTDEFGWCTEWNPAMSKLTGLKREEVIDKMLLGEVFGTQKSCCRLKNQEAFVNLGIVLNNAVTSQDPEKVSFAFFTRGGKYVECLLCVSKKLDREGVVTGVFCFLQLAS
B4: FZO1 truncated 83-493 D216R (Saccharomyces cerevisiae, UniProt P38297); chain ISSQLSQWNYNNNRVLLKRSILKTQAFMDQLQEENNIRPIFIAANDEREKLHVLQLNIKLDGQYNTKEKNGFNIEKKALSKLFHSQIVSVTNHLNALKKRVDDVSSKVFITGDVNTGKSALCNSLLKQRLLPERQLPCTNVFSEILEARENDGIEEVHAIPLNIAPTLKEAIDMYSIQNPKTYEIHTLKELPDLVPQNGKYALLKIYIKDDKRPASTSLLRNGTVDISLIDSPGLNMDSLQTAEVMSRQEEIDLVIFVVNAENQLTLSAKEFISLASREKKLMFFVVKKFDKIRDKQRCKELILKQIRDLSPETYKRAADFVHFVSKNGDELPHYHNENDNEDHGDRKPDDDPYSSSDPDPDFDSLEDSLRNFVLKKRSLSKLLPAKTYLSKLLSDIIMISKSNMKMYSEEGSGSGSGGSTKKELENKKESNLLSIKFFQSLYEGTVAQKLMVEEINLDID
B5: PTPRM 21-740 (Homo sapiens, UniProt P28827); sequence looked up; chain ETFSGGCLFDEPYSTCGYSQSEGDDFNWEQVNTLTKPTSDPWMPSGSFMLVNASGRPEGQRAHLLLPQLKENDTHCIDFHYFVSSKSNSPPGLLNVYVKVNNGPLGNPIWNISGDPTRTWNRAELAISTFWPNFYQVIFEVITSGHQGYLAIDEVKVLGHPCTRTPHFLRIQNVEVNAGQFATFQCSAIGRTVAGDRLWLQGIDVRDAPLKEIKVTSSRRFIASFNVVNTTKRDAGKYRCMIRTEGGVGISNYAELVVKEPPVPIAPPQLASVGATYLWIQLNANSINGDGPIVAREVEYCTASGSWNDRQPVDSTSYKIGHLDPDTEYEISVLLTRPGEGGTGSPGPALRTRTKCADPMRGPRKLEVVEVKSRQITIRWEPFGYNVTRCHSYNLTVHYCYQVGGQEQVREEVSWDTENSHPQHTITNLSPYTNVSVKLILMNPEGRKESQELIVQTDEDLPGAVPTESIQGSTFEEKIFLQWREPTQTYGVITLYEITYKAVSSFDPEIDLSNQSGRVSKLGNETHFLFFGLYPGTTYSFTIRASTAKGFGPPATNQFTTKISAPSMPAYELETPLNQTDNTVTVMLKPAHSRGAPVSVYQIVVEEERPRRTKKTTEILKCYPVPIHFQNASLLNSQYYFAAEFPADSLQAAQPFTIGDNKTYNGYWNTPLLPYKSYRIYFQAASRANGETKIDCVQVATKGAATPKPVPEPEKQTDHT
B6: clcA 1-465 C85A/F219A/I220A/I223A/I227A (Escherichia coli, UniProt P37019); chain MKTDTPSLETPQAARLRRRQLIRQLLERDKTPLAILFMAAVVGTLVGLAAVAFDKGVAWLQNQRMGALVHTADNYPLLLTVAFLASAVLAMFGYFLVRKYAPEAGGSGIPEIEGALEDQRPVRWWRVLPVKFFGGLGTLGGGMVLGREGPTVQIGGNIGRMVLDIFRLKGDEARHTLLATGAAAGLAAAFNAPLAGILFIIEEMRPQFRYTLISIKAVAAGVAMSTAMYRIFNHEVALIDVGKLSDAPLNTLWLYLILGIIFGIFGPIFNKWVLGMQDLLHRVHGGNITKWVLMGGAIGGLCGLLGFVAPATSGGGFNLIPIATAGNFSMGMLVFIFVARVITTLLCFSSGAPGGIFAPMLALGTVLGTAFGMVAVELFPQYHLEAGTFAIAGMGALLAASIRAPLTGIILVLEMTDNYQLILPMIITGLGATLLAQFTGGKPLYSAILARTLAKQEAEQLARSK
B7: VPH1/STV1 chimera 1-123 (Saccharomyces cerevisiae); sequence looked up; chain MAEKEEAIFRSAEMALVQFYIPQEISRDSAYTLGQLGLVQFRDLNSKVRAFQRTFVNEIRRLDNVERQYRYFYSLLKKHDIKLYEGDTDKYLDGSGELYVPPSGSVIDDYVRNASYLEERLIQLDESLDSLRSKLNDLLEQRQVIFECSKFIEVNPGIAGRATNPEIEQEERDVDEFRMTPDDISETLSDAFSFDDETPQDRGALGNDLTRNQSVEDLSFLEQGYQHRYMITGSIRRTKVDILNRILWRLLRGNLIFQNFPIEEPLLEGKEKVEKDCFIIFTHGETLLKKVKRVIDSLNGKIVSLNTRSSELVDTLNRQIDDLQRILDTTEQTLESELYAIAKELDSWFQDVTREKAIFEILNKSNYDTNRKILIAEGWIPRDELATLQARLGEMIARLGIDVPSIIQVLD
B8: CSRP2, human; sequence looked up; chain MPVWGGGNKCGACGRTVYHAEEVQCDGRSFHRCCFLCMVCRKNLDSTTVAIHDEEIYCKSCYGKKYGPKGYGYGQGAGTLNMDRGERLGIKPESVQPHRPTTNPNTSKFAQKYGGAEKCSRCGDSVYAAEKIIGAGKPWHKNCFRCAKCGKSLESTTLTEKEGEIYCKGCYAKNFGPKGFGYGQGAGALVHAQ
B9: TOP2 C180A/C731A/K804C (Saccharomyces cerevisiae, UniProt P06786); AlexaFluor 488/546 labels; sequence looked up; chain MSTEPVSASDKYQKISQLEHILKRPDTYIGSVETQEQLQWIYDEETDCMIEKNVTIVPGLFKIFDEILVNAADNKVRDPSMKRIDVNIHAEEHTIEVKNDGKGIPIEIHNKENIYIPEMIFGHLLTSSNYDDDEKKVTGGRNGYGAKLCNIFSTEFILETADLNVGQKYVQKWENNMSIAHPPKITSYKKGPSYTKVTFKPDLTRFGMKELDNDILGVMRRRVYDINGSVRDINVYLNGKSLKIRNFKNYVELYLKSLEKKRQLDNGEDGAAKSDIPTILYERINNRWEVAFAVSDISFQQISFVNSIATTMGGTHVNYITDQIVKKISEILKKKKKKSVKSFQIKNNMFIFINCLIENPAFTSQTKEQLTTRVKDFGSRCEIPLEYINKIMKTDLATRMFEIADANEENALKKSDGTRKSRITNYPKLEDANKAGTKEGYKCTLVLTEGDSALSLAVAGLAVVGRDYYGCYPLRGKMLNVREASADQILKNAEIQAIKKIMGLQHRKKYEDTKSLRYGHLMIMTDQDHDGSHIKGLIINFLESSFPGLLDIQGFLLEFITPIIKVSITKPTKNTIAFYNMPDYEKWREEESHKFTWKQKYYKGLGTSLAQEVREYFSNLDRHLKIFHSLQGNDKDYIDLAFSKKKADDRKEWLRQYEPGTVLDPTLKEIPISDFINKELILFSLADNIRSIPNVLDGFKPGQRKVLYGCFKKNLKSELKVAQLAPYVSEATAYHHGEQSLAQTIIGLAQNFVGSNNIYLLLPNGAFGTRATGGKDAAAARYIYTELNKLTRKIFHPADDPLYCYIQEDEKTVEPEWYLPILPMILVNGAEGIGTGWSTYIPPFNPLEIIKNIRHLMNDEELEQMHPWFRGWTGTIEEIEPLRYRMYGRIEQIGDNVLEITELPARTWTSTIKEYLLLGLSGNDKIKPWIKDMEEQHDDNIKFIITLSPEEMAKTRKIGFYERFKLISPISLMNMVAFDPHGKIKKYNSVNEILSEFYYVRLEYYQKRKDHMSERLQWEVEKYSFQVKFIKMIIEKELTVTNKPRNAIIQELENLGFPRFNKEGKPYYGSPNDEIAEQINDVKGATSDEEDEESSHEDTENVINGPEELYGTYEYLLGMRIWSLTKERYQKLLKQKQEKETELENLLKLSAKDIWNTDLKAFEVGYQEFLQRDAEARGGNVPNKGSKTKGKGKRKLVDDEDYDPSKKNKKSTARKGKKIKLEDKNFERILLEQKLVTKSKAPTKIKKEKTPSVSETKTEEEENAPSSTSSSSIFDIKKEDKDEGELSKISNKFKKISTIFDKMGSTSATSKENTPEQDDVATKKNQTTAKKTAVKPKLAKKPVRKQQKVVELSGESDLEILDSYTDREDSNKDEDDAIPQRSRRQRSSRAASVPKKSYVETLELSDDSFIEDDEEENQGSDVSFNEED

`B1 (Gm4951 N190A/E191A)`: binding “binds” (itself; mass photometry).
`CTGCTCCGTCCGCCTTCGAGGAGAGGTCGGCATCTTCAAGTCAATCGGTCC (dsDNA; 5'-amino-C6 primer)` has a Kd of 3.93 ± 1.87 nM (SUA7 full length assumed; array; double-stranded DNA, one strand shown; TFIIB alone).
`B2 (SPOP M117V)` — result for binding: “binds” (itself; negative-stain TEM).
`human MCM7`: “log2 fold change” -0.45 (CYB5R4 knockout human cells; PP6 interaction, 3xFLAG-PP6C IP-MS; concentration not given; baseline: CYB5R4 KO over parental).
`B3 (PHYA 1-876 I748P)` — result for binding: “binds” (itself; SEC).
`B4 (FZO1 truncated 83-493 D216R)` — result for binding: “binds” (itself; SEC).
`B5 (PTPRM 21-740)` — result for binding: “binds” (itself; bead aggregation, epifluorescence microscopy; self-aggregation).
`ATGATTACTAATTCTTAACATTCGAGTTCAATCTCTCAAGTCAATCGGTCC (dsDNA; 5'-amino-C6 primer)` has a Kd of 2.84 ± 0.4 nM (SUA7 full length assumed; array; double-stranded DNA, one strand shown; TFIIB alone).
For `B6`, binding read “binds” (itself; SEC).
`B7 (VPH1/STV1 chimera 1-123)`: binding “binds” (itself; SEC).
`B8 (CSRP2, human)`: “log2 fold change” 0.4 (CYB5R4 knockout human cells; PP4 interaction, 3xFLAG-PP4C IP-MS; concentration not given; baseline: CYB5R4 KO over parental).
`B9 (TOP2 C180A/C731A/K804C)`: binding “binds” (itself; FRET or BRET; with: ADP, ATP, ADPNP).

Excerpt of the above:
`B5 (PTPRM 21-740)` — result for binding: “binds” (itself; bead aggregation, epifluorescence microscopy; self-aggregation).
`ATGATTACTAATTCTTAACATTCGAGTTCAATCTCTCAAGTCAATCGGTCC (dsDNA; 5'-amino-C6 primer)` has a Kd of 2.84 ± 0.4 nM (SUA7 full length assumed; array; double-stranded DNA, one strand shown; TFIIB alone).
